Measured values of several laboratories.
Lines come from different studies, so protocols differ. Several values in a cell are separate wells, animals, samples, runs or records. ± marks the error that the study gave. Ends that are not written are not given here. The star is where a group is joined. * marks the point of attachment.
CDK5 with p25: Cyclin-dependent kinase 5, with p25 (CDK5, Homo sapiens, UniProt Q00535)
UniProt Q00535, sequence (whole entry, looked up): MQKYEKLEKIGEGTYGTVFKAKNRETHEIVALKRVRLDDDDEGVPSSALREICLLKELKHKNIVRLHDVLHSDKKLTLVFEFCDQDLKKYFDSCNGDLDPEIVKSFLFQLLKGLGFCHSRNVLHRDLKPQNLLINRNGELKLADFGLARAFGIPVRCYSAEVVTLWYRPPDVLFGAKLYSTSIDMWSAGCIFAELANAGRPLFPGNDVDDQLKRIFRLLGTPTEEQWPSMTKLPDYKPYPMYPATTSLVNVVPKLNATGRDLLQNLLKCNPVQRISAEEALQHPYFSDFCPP
Genome polyprotein NS3 helicase domain: Genome polyprotein, NS3 helicase domain (Hepatitis C virus genotype 1b, UniProt Q9WMX2)
HLA class I histocompatibility antigen, B alpha chain: HLA class I histocompatibility antigen, B alpha chain (Homo sapiens, UniProt P01889)
B1: chain MSEILPYGEDKMGRFGADPEGSDLSFSCRLQDTNSFFAGNQAKRPPKLGQIGRAKRVVIEDDRIDDVLKGMGEKPPSGV
UniProt Q64663, sequence (whole entry, unmodified, looked up): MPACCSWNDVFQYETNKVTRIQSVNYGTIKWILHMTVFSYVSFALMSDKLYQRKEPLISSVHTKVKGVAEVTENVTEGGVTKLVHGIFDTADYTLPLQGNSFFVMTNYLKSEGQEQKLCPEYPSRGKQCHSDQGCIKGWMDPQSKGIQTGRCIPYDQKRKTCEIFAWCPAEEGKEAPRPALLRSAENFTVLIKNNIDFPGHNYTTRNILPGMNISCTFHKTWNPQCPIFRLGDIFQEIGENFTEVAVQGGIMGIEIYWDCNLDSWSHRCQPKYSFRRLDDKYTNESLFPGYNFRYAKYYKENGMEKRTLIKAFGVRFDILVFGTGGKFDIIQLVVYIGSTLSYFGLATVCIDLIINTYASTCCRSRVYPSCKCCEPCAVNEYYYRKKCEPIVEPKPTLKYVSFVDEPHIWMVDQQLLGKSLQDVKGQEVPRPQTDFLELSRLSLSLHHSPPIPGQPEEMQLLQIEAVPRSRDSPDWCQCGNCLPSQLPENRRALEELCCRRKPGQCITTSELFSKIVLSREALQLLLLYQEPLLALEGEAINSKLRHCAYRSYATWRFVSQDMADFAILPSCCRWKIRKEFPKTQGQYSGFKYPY
UniProt Q9UQM7, sequence (whole entry, unmodified, looked up): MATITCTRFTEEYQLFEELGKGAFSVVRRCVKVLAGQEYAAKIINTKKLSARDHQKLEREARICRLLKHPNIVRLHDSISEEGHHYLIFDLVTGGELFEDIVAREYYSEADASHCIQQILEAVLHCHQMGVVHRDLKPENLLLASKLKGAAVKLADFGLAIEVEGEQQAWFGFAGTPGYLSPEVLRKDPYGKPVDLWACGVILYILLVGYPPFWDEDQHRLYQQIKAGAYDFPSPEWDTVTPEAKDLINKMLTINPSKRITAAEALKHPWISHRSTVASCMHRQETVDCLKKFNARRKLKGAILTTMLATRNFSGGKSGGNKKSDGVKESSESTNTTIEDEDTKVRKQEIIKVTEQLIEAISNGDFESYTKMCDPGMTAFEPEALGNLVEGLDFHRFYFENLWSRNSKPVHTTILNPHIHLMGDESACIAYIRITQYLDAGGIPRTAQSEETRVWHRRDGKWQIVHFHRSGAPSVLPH
UniProt P14416, sequence (whole entry, looked up): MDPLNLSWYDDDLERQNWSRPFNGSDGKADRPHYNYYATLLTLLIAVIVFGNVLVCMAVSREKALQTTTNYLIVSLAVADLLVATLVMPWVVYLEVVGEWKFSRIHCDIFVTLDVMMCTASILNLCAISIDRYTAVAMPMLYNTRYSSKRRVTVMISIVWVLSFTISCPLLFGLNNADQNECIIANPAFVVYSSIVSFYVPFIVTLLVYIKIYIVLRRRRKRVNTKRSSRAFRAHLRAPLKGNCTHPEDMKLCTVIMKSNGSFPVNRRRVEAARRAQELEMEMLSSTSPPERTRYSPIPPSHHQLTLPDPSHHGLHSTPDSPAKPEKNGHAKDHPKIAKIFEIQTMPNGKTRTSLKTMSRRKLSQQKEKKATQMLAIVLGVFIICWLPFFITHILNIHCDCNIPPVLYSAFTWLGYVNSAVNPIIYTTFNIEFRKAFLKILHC
UniProt O15525, sequence (whole entry, looked up): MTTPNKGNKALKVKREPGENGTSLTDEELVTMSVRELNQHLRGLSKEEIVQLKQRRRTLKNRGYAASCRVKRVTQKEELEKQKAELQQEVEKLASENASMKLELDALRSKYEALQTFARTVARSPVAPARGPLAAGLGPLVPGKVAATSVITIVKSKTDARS

Substance | tested on | assay | test system | setting | scale | measurement | result
RHOA (wild-type) | RHOA | intrinsic GTPase activity |  | room temperature, together with: 5 µM GTP |  | GTP hydrolysis rate constant | 0.034 ± 0.01 min⁻¹
BzATP | P2X purinoceptor 7 (P2rx7, Rattus norvegicus, UniProt Q64663, I214A) | ion current, agonist, two-electrode voltage clamp | Xenopus oocytes | 0.41 µM |  | normalized current | 0
human ME2 P78D |  | enzyme activity, NADH absorbance |  | with fumarate 3 mM, together with: L-malate varied |  | Hill coefficient | 1.04 ± 0.03
pregnenolone sulfate | TRPM3 (Homo sapiens, UniProt Q9HCF6) | whole-cell patch clamp | HEK-293T expressing hTRPM3-YFP | 40 µM, at +80 mV, not DTT-treated, together with: clotrimazole 10 µM |  | current density | 9.89 ± 4.7 pA/pF
KEAFWDRCLSVINLMSMKMLQINA | CDK5 with p25 | phosphotransferase activity, radiometric | peptide | concentration not given, 10% DMSO, together with: histone substrate | relative to: p5-WT peptide | activity change | 41%
For-MAHA (N-formyl; For = O=C*) | Peptide deformylase, mitochondrial (Homo sapiens, UniProt Q9HBH1) | substrate, FDH/NAD+-coupled |  | pH 7.5 |  | Km | 8.14 ± 0.887 mM
YRVAAAP | VSR1, PA domain (Arabidopsis thaliana, UniProt P93026) | differential scanning fluorimetry | peptide | 5 mM, pH 7.1 |  | change in Tm | no effect
KEAFWDRCLSVINVMSSKMLQINA | CDK5 with p25 | phosphotransferase activity, radiometric | peptide | concentration not given, 10% DMSO, together with: histone substrate | relative to: p5-WT peptide | activity change | 20%
Ivermectin | GABA-A receptor; alpha-1/beta-2/gamma-2 (Rattus norvegicus, UniProt P18508+P62813+P63138) | whole-cell patch clamp | HEK293 cells | concentration not given, 30 s | relative to: maximum | response amplitude | 50%
Ro 41-0960 | Genome polyprotein NS3 helicase domain | NS3 helicase DNA binding, fluorescence, Cy5-dT15 |  | 100 µM |  | inhibition | 5%
β-melibiose | Frizzled-8 (Xenopus laevis, UniProt Q91719) | binding, biolayer interferometry |  | 25 °C, together with: immobilized biotinylated carbohydrate |  | association rate constant | 15800 M⁻¹ s⁻¹
KEAFWDRCLSVINLMSSKMLQINL | CDK5 with p25 | phosphotransferase activity, radiometric | peptide | concentration not given, 10% DMSO, together with: histone substrate | relative to: p5-WT peptide | activity change | -7%
KQWLVWLFL | TCR | SPR | peptide | 25 °C | relative to: wild-type peptide | ΔΔG° | -1.8 kcal/mol
Ac-PQLPF-NH2 | Protein-glutamine gamma-glutamyltransferase (TGM2, Homo sapiens, UniProt P21980) | deamidation, substrate | peptide |  |  | kcat/KM | 2000 ± 167 M⁻¹ s⁻¹
RDHPRWGASNTALARWLPP | HLA-DR, human | DELFIA | peptide | 10 µM, 48 h, 37 °C | relative to: peptide alone | binding | > 2 fold
(+)-catechin hydrate | Genome polyprotein NS3 helicase domain | NS3 helicase DNA binding, fluorescence, Cy5-dT15 |  | 100 µM |  | inhibition | 0%
KEIANLEKEIASLEKKVAVLKQRNAAHKQEVAALRKEIAYVEDEIQYVEDE | Transcription factor MafG (Homo sapiens, UniProt O15525) | heterodimer thermal denaturation, CD | 1 M GuHCl | 4 µM total peptide, pH 7.4 |  | Tm | 37.9 °C
CIIS | Saccharomyces cerevisiae protein farnesyltransferase | peptide prenylation, substrate, SPOT peptide library | peptide | together with: C15-Alk | relative to: random library | relative spot intensity | 100%
RQLRNWTSAEGLLRVHARL | HLA-DR, human | DELFIA | peptide | 10 µM, 48 h, 37 °C | relative to: peptide alone | binding | > 2 fold

Substance | tested on | assay | test system | setting | scale | measurement | result
KEAFWDRCLSVINLMSSKMLQINI | CDK5 with p25 | phosphotransferase activity, radiometric | peptide | concentration not given, 10% DMSO, together with: histone substrate | relative to: p5-WT peptide | activity change | 14%
laminarin | uncharacterized protein (Pelagibacter ubique, UniProt Q4FLC8) | thermal stabilisation, differential scanning fluorimetry screen | Candidatus Pelagibacter ubique | hit threshold ΔTm 2 °C |  | ΔTm | 5.01 °C
Cbz-WEHD-CH2F (Z-WEHD-FMK; Cbz = O=C(OCc1ccccc1)*; CH2F = FC*) | Caspase-1 (CASP1, Homo sapiens, UniProt P29466) | inhibitor, FRET |  | 100 nM, 30 min preincubation, 5 nM enzyme |  | remaining activity | 0%
KEAFWDRCLSVINLMSAKMLQINA | CDK5 with p25 | phosphotransferase activity, radiometric | peptide | concentration not given, 10% DMSO, together with: histone substrate | relative to: p5-WT peptide | activity change | 61%
PGYNEWREFCGLPRLETPA | HLA-DR, human | DELFIA | peptide | 10 µM, 48 h, 37 °C | relative to: peptide alone | binding | > 2 fold
Tannic acid | Protein disulfide-isomerase (P4HB, Homo sapiens, UniProt P07237) | disulfide reductase activity |  | 20 µM, 15 min, together with: di-eosin-GSSG |  | inhibition | inhibited
milbemycin oxime | CDR1 (Candida albicans, UniProt Q5ANA3) | binding, microscale thermophoresis |  | 611 pM |  | fraction bound | -4.29%
KEAFWDRCLSVINLMSSKMLQINV | CDK5 with p25 | phosphotransferase activity, radiometric | peptide | concentration not given, 10% DMSO, together with: histone substrate | relative to: p5-WT peptide | activity change | -25%
SPSAPPHRWCL | HLA class I histocompatibility antigen, B alpha chain | iTopia initial binding | peptide | 11 µM, 18 h, 21 °C, HLA-B7 allele | relative to: allele positive control peptide | binding | 75%
(+)-butaclamol | D(2) dopamine receptor (DRD2, Homo sapiens, UniProt P14416) | radioligand binding, antagonist |  | reference compound |  | Hill coefficient | 1.1
KEAFWDRCLSVINLMSSKMIQINA | CDK5 with p25 | phosphotransferase activity, radiometric | peptide | concentration not given, 10% DMSO, together with: histone substrate | relative to: p5-WT peptide | activity change | 62%
B1 | Calcium/calmodulin-dependent protein kinase type II subunit alpha (CAMK2A, Homo sapiens, UniProt Q9UQM7, D135N/E236K) | binding, ITC | kinase domain D135N/E236K |  |  | ΔH | -6.96 kcal/mol and -7.22 kcal/mol
11-deoxycorticosterone | CYP11B2 (human) | substrate binding, stopped-flow global kinetic fitting | purified enzyme | 3-state conformational selection model, together with: equimolar adrenodoxin |  | rate constant k-2 | 15 ± 0.779 s⁻¹
human ME2 D102S |  | enzyme activity, NADH absorbance |  | with fumarate 3 mM, together with: L-malate varied |  | Hill coefficient | 1.05 ± 0.04
LPSDFKTIL | HLA class I histocompatibility antigen, B alpha chain | iTopia initial binding | peptide | 11 µM, 18 h, 21 °C, HLA-B7 allele | relative to: allele positive control peptide | binding | 53%
ESGRRVLVYSCRHGYELQG | HLA-DR, human | DELFIA | peptide | 10 µM, 48 h, 37 °C | relative to: peptide alone | binding | > 2 fold
KEAFWDRCLSVINLMSSKMLDINA | CDK5 with p25 | phosphotransferase activity, radiometric | peptide | concentration not given, 10% DMSO, together with: histone substrate | relative to: p5-WT peptide | activity change | 65%
RPGVNLSL | HLA class I histocompatibility antigen, B alpha chain | iTopia initial binding | peptide | 11 µM, 18 h, 21 °C, HLA-B7 allele | relative to: allele positive control peptide | binding | 72%

For quick reference, copied from above:
Substance | tested on | assay | test system | setting | scale | measurement | result
KQWLVWLFL | TCR | SPR | peptide | 25 °C | relative to: wild-type peptide | ΔΔG° | -1.8 kcal/mol
Ac-PQLPF-NH2 | Protein-glutamine gamma-glutamyltransferase (TGM2, Homo sapiens, UniProt P21980) | deamidation, substrate | peptide |  |  | kcat/KM | 2000 ± 167 M⁻¹ s⁻¹
